Assay results pooled from the literature.
Numbered parts are unrelated; each lists some results of a single study.
Chain of UniProt P41743 (whole entry, looked up): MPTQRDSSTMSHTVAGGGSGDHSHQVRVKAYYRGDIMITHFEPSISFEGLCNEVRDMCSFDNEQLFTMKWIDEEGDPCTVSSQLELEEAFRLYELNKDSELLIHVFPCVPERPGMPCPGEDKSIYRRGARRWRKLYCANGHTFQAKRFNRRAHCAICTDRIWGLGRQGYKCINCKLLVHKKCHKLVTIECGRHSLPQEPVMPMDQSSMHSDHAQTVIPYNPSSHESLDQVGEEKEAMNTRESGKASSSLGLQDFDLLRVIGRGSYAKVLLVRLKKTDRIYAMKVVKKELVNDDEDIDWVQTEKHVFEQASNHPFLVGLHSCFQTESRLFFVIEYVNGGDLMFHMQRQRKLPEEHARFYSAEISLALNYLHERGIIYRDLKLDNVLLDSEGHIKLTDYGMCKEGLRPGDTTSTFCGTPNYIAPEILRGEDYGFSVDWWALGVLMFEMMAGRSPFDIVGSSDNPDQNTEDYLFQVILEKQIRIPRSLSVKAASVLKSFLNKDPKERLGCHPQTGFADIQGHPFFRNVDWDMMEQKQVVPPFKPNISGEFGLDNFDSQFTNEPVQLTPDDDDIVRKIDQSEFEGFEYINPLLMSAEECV
Chain of UniProt P42336 (whole entry, unmodified, looked up): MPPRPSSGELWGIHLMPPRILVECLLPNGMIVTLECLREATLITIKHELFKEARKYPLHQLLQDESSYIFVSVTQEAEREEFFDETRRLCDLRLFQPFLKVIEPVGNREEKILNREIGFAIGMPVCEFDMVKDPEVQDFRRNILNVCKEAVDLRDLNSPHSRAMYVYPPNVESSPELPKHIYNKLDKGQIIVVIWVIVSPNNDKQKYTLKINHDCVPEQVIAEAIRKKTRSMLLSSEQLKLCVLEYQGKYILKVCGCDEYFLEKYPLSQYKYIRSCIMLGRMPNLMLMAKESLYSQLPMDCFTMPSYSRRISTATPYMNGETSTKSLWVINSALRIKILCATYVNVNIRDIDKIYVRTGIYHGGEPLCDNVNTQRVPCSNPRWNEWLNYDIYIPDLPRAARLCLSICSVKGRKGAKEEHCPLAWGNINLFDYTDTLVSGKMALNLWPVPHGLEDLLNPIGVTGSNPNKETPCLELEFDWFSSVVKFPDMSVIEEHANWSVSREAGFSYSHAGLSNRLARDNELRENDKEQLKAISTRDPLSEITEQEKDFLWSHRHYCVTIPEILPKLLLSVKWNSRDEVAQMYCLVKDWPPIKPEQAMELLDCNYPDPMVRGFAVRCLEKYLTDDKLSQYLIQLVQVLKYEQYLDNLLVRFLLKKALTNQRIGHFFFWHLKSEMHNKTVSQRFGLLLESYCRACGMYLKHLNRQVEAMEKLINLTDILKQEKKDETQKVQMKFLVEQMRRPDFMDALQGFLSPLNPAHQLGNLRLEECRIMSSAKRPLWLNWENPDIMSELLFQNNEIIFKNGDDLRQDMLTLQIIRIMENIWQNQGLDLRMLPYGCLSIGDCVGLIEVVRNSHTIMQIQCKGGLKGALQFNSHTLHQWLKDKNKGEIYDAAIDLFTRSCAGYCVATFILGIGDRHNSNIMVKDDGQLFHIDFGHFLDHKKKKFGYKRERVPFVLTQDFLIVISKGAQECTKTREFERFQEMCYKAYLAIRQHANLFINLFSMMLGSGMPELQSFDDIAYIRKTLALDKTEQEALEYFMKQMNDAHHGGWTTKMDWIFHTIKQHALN
Chain of UniProt P43403 (whole entry, looked up): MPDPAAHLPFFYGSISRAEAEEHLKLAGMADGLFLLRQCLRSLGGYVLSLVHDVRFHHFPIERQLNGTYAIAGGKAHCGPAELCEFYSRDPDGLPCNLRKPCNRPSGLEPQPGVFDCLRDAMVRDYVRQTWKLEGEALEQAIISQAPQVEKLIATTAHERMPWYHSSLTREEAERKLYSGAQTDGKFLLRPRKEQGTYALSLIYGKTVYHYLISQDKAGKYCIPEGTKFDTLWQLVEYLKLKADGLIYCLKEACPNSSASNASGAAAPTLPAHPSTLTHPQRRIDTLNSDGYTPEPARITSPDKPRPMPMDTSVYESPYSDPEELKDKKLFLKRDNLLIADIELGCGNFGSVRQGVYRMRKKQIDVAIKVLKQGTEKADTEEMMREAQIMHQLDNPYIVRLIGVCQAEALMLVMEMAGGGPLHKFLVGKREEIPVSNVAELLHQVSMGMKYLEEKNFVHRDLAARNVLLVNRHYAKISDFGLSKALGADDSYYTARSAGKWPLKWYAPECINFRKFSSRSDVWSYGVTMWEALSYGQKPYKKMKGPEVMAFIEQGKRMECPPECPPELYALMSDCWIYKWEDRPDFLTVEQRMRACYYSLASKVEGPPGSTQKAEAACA
Chain of UniProt P10721 (whole entry, looked up): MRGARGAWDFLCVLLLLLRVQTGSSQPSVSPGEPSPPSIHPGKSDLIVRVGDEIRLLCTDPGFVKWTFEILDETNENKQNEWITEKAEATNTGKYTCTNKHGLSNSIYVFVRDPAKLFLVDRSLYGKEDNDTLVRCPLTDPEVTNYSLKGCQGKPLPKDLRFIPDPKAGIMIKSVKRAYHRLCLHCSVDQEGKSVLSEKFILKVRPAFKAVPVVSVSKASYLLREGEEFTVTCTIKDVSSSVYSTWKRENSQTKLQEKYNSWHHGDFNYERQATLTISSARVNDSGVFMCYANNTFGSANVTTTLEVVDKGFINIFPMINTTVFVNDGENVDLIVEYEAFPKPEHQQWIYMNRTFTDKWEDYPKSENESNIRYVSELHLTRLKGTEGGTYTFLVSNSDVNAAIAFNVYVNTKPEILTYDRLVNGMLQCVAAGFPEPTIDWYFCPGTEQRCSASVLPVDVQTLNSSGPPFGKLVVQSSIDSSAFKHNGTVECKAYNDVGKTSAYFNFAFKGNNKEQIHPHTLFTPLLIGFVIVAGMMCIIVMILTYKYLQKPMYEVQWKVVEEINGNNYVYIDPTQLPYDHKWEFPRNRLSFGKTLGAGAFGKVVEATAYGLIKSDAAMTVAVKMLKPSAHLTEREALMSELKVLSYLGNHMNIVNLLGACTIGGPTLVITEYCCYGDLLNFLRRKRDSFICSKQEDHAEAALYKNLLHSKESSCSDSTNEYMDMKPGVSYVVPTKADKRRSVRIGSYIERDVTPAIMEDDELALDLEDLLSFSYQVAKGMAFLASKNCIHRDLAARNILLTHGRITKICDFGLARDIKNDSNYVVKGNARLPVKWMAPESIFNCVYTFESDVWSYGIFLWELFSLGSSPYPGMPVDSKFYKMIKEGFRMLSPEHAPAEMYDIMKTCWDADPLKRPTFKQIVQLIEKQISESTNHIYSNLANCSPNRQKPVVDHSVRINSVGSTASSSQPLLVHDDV
Chain of UniProt Q9H2G2 (whole entry, looked up): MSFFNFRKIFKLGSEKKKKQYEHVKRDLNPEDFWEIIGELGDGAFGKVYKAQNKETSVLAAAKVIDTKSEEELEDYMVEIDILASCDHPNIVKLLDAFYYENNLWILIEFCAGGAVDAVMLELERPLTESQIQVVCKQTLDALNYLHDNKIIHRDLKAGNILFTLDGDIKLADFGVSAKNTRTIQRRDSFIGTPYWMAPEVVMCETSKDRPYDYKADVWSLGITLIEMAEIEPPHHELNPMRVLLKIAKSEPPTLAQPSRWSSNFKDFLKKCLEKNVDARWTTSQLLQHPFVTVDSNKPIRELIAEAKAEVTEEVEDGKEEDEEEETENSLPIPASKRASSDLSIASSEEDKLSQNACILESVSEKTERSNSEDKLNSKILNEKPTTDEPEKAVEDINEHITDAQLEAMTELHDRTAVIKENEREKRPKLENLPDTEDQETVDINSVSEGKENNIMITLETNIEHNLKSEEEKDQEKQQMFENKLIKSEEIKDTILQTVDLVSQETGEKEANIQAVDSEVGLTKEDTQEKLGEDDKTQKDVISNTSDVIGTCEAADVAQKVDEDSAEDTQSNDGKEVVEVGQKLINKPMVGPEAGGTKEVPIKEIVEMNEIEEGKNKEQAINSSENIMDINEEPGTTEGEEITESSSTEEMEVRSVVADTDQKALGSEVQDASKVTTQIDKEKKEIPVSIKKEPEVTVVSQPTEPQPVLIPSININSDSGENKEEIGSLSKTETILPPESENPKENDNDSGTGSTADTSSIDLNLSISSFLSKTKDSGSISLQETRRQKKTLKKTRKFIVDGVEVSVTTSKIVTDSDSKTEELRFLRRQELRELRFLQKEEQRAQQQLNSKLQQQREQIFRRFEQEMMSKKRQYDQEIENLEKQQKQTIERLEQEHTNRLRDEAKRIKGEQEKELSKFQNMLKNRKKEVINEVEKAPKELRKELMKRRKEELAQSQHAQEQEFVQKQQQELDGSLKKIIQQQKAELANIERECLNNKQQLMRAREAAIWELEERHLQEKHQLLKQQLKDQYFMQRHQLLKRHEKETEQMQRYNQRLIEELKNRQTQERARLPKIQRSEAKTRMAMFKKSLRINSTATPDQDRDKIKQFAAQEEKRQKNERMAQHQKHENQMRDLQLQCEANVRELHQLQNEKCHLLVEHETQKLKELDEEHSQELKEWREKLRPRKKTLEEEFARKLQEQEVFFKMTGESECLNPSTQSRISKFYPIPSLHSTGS

Study 1
Target: Interferon regulatory factor 7, full length, phosphomimetic (IRF7, Homo sapiens, UniProt Q92985, residues 1-503, S471D/S472D/S475D/S476D/S477D/S483D/S484D/S487D)
Technique: protein-binding microarray
Molecule type: double-stranded DNA, one strand shown
Matrix: in vitro
Tested at: 2200 nM top
Setting: 60-bp whole probe
Together with: salmon DNA 0.4 mg/ml
Relative to: random background probes
Reading: higher = stronger binding
Shared flanks, not repeated: GCCTAGCAC … GTCTTGATTCGCTTGACGCTGCTG
Target sequence (chain): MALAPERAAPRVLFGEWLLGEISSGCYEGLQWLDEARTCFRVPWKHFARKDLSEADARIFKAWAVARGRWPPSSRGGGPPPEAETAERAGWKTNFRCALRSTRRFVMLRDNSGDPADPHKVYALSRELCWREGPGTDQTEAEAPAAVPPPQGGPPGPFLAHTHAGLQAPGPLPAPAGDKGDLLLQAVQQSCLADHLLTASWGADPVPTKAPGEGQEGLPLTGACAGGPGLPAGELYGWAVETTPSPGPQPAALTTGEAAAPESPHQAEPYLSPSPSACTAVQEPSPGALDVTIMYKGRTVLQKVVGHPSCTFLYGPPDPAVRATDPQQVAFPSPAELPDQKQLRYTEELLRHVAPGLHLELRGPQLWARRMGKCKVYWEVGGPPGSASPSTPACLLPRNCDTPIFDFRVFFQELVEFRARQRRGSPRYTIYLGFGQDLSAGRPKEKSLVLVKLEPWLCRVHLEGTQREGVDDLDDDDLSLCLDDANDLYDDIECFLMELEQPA
Oligonucleotide	fitted relative affinity [z-score]
GACGATCTCAGTATTGAGACGTGCTAG	0.00341
GACGATATCGGGACTGGATACGTGCTA	0.0344
TTAGGTATCGTTCTCCTTTAGTGCTAG	1.83
CAGCCTTTGCCTCATCTTGCAGTGCTA	0.727
TTAGGTATCGACTTCCGGTTAGTGCTA	1.69
GACGGTATCGGGTATAGGGACGTGCTA	-0.201
TCAACTCTGAACCTTGGACTGTGCTAG	0.163
TGAGAACTGAGTATCGATTAGTGCTAG	-0.314

Study 2
Compound: CNC(=O)Nc1ccc2c(c1)[C@@]1(CC2)OC(=O)N(CC(=O)N(Cc2ccc(F)cc2)[C@@H](C)C(F)(F)F)C1=O
Read-out: cell-free assay
Technique: competition with immobilised ligand
Tested at: 1 µM
target	remaining binding
TESK1 (Homo sapiens, UniProt Q15569)	100%
CDKL3 (Homo sapiens, UniProt Q8IVW4)	92%
SLK (Homo sapiens, UniProt Q9H2G2)	83%
CSNK1G3 (Homo sapiens, UniProt Q9Y6M4)	89%
WNK1 (Homo sapiens, UniProt Q9H4A3)	79%
CHEK2 (Homo sapiens, UniProt O96017)	100%
ZAP70 (Homo sapiens, UniProt P43403)	100%
PIK3CA (Homo sapiens, UniProt P42336, M1043I)	100%
Mast/stem cell growth factor receptor Kit, autoinhibited (KIT, Homo sapiens, UniProt P10721)	89%
eIF-2-alpha kinase GCN2, C-terminal kinase domain (EIF2AK4, Homo sapiens, UniProt Q9P2K8, S808G)	100%
Tyrosine-protein kinase ABL1, phosphorylated (ABL1, Homo sapiens, UniProt P00519, E255K)	100%
ULK1 (Homo sapiens, UniProt O75385)	64%
PRKCI (Homo sapiens, UniProt P41743)	91%

Study 3
Target: Ribosomal protein S6 kinase beta-1 (RPS6KB1, Homo sapiens, UniProt P23443)
Chain of UniProt P23443 (whole entry, looked up): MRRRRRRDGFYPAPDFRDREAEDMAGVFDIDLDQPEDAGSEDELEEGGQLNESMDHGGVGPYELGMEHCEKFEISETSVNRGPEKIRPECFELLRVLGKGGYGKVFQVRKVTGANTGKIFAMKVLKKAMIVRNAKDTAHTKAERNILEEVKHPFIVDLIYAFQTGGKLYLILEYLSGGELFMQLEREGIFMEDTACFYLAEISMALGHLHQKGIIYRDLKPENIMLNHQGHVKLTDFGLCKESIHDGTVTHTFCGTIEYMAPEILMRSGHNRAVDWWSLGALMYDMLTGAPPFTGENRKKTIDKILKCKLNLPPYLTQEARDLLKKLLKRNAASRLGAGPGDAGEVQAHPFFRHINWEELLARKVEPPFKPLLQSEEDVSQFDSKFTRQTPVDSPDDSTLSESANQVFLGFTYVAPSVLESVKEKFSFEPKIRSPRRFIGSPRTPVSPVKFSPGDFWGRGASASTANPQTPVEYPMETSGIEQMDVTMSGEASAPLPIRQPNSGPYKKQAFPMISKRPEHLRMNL
Read-out: enzyme activity
Mode: inhibitor
Tested at: 0.5 µM
Relative to: control
Compound	remaining activity
N#CC(C#N)=C(N)/C(C#N)=C/c1ccc(O)cc1	89.5%
Nc1[nH]nc2nc3ccccc3nc12	99.8%
COc1ccc(C(=O)Nc2sc3c(c2C(N)=O)CCCC3)cc1OC	84.3%
Oc1ccc(-c2nc(-c3ccncc3)c(-c3ccc(F)cc3)[nH]2)cc1	87.8%
COc1ccc(CNC(=O)Nc2ncc([N+](=O)[O-])s2)cc1	85.4%
NCCNc1ncc(C(N)=O)c(Nc2cccc(C(F)(F)F)c2)n1	87.5%
CCOC(=O)c1c(C)[nH]c(/C=C2\C(=O)Nc3ccccc32)c1C	85.7%
O=C(CCCc1ccc(-c2ccccc2F)cc1)Nc1ccc(O)cc1	102%
O=C1NC(=O)C(c2cn(CCCO)c3ncccc23)=C1c1cnccn1	90.2%
CN(C)c1ccc(C=C2C(=O)Nc3ccccc32)cc1	97.1%
Nc1ccc2ncnc(NCCc3ccc(Oc4ccccc4)cc3)c2c1	99.5%
O=S(=O)(c1cccc2cnccc12)N1CCCNCC1	76.6%
COc1cc2ncnc(Nc3ccc(F)c(Cl)c3)c2cc1OCCCN1CCOCC1	93.9%
O=C(O)c1ccc2c3c1cccc3c(=O)n1c3ccccc3nc21	95.9%
Cc1ccc(NC(=O)c2ccc(CN3CCN(C)CC3)cc2)cc1Nc1nc(-c2cccnc2)cs1	104%

Study 4
Target: Phosphate system positive regulatory protein PHO4, full length, GST-tagged (PHO4, Saccharomyces cerevisiae, UniProt P07270, residues 1-312)
Technique: competition protein-binding microarray
Molecule type: double-stranded DNA, one strand shown
Matrix: in vitro
Tested at: 2 µM
Setting: whole 60-bp probe, lowest competitor level
Together with: Cbf1 competitor, 0.05 µM
Reading: higher = stronger binding
Shared flanks, not repeated: … GTCTTGATTCGCTTGACGCTGCTG
Target sequence (chain): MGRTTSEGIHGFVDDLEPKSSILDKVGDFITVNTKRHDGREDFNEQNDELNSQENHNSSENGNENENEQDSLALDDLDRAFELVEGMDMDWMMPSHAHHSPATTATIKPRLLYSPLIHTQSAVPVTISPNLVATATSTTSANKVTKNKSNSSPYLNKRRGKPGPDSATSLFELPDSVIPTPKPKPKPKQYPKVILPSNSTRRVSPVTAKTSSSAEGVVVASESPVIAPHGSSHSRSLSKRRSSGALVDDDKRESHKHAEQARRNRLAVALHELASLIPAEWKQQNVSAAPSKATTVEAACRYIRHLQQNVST
Oligonucleotide	fluorescence intensity [a.u.]
TCGAGGACGTATTGGCAGGTGAAGTTTTCAGCAACT	3070
AAAAACTCCAAGGAACGCGTGTCGGCCGTAATCGTT	8830
CATACCCAACCTTGCTTTGTGGGTGAAGATATTTGT	3870
CTTCTGTAAATTTTTCACGTGGGGTGAAGCGCCCCG	13500
TGCGCAACAACTTGTCACTACACTTTATGTCTAGAA	3320
GGATTAGACAATGGAGAAGATGGGATGAGACACATT	3280
TGCAAGTGAGTATGGCATGTGGTGGTGGGATTAGAG	12800
CTTCTGTAAATTTGGCAGGTGGGTGGACGCGCCCCG	6100

Excerpt of the above (study 3):
Compound	remaining activity
O=S(=O)(c1cccc2cnccc12)N1CCCNCC1	76.6%
O=C(O)c1ccc2c3c1cccc3c(=O)n1c3ccccc3nc21	95.9%
COc1ccc(CNC(=O)Nc2ncc([N+](=O)[O-])s2)cc1	85.4%
